Published values pooled from the literature.
Each line is one published result; not all experiments were run side by side.
Organism: Pseudomonas aeruginosa

SMILES = CCCCCCC#Cc1cncc(-c2nnc(SCc3ccc(Cl)cc3)n2C)c1; test = microbial growth, broth dilution; system = DSM1128; MIC = > 64 µg/mL
SMILES = COc1c(NC(=O)c2ccc(NC(=O)c3ccc(NC(=O)[C@H](Cc4c[nH]nn4)NC(=O)c4ccc(NC(=O)/C(C)=C/c5ccc(O)cc5)cc4)cc3)cc2)ccc(C(=O)O)c1O; test = broth microdilution; system = ciprofloxacin-sensitive; MIC = 32 µg/mL
SMILES = CC1(C)[C@H](NC(=O)/C(=N\OCC(=O)N2CCC[C@@H]2C(=O)O)c2nsc(N)n2)C(=O)N1OS(=O)(=O)O; test = agar dilution; system = PAO1; MIC = > 64 µg/mL
SMILES = CC(C)C[C@@H]1NC(=O)[C@@H](CC(C)C)NC(=O)[C@H](CCN)NC(=O)[C@@H](NC(=O)[C@H](CCN)NC(=O)[C@@H](N)[C@@H](C)O)CCNC(=O)[C@H]([C@@H](C)O)NC(=O)[C@H](CCN)NC(=O)[C@H](CCN)NC1=O; test = broth microdilution; system = ATCC 27853, cation-adjusted Mueller-Hinton broth; conditions = 18 to 20 h, 37 °C, 0.002% polysorbate 80; MIC = > 128 µg/mL
SMILES = CC[C@H]1OC(=O)[C@H](C)[C@@H](O[C@H]2C[C@@](C)(OC)[C@@H](O)[C@H](C)O2)[C@H](C)[C@@H](O[C@@H]2O[C@H](C)C[C@H](N(C)C)[C@H]2O)[C@](C)(OC)C[C@@H](C)C(=O)[C@H](C)[C@@H](O)[C@]1(C)O; test = microbial growth; system = ATCC27853; MIC = > 32 µg/mL
SMILES = CC1(C)C(NC(=O)C(=NOCC(=O)N2CC3CCCC3C2C(=O)O)c2csc(N)n2)C(=O)N1OS(=O)(=O)O (stereo not drawn); test = agar dilution; system = PAO1; MIC = 64 µg/mL
SMILES = CCCCCCn1cc[n+](CCCCCCCCCCOc2cc(OCCCCCCCCCC[n+]3ccn(CCCCCC)c3)cc(OCCCCCCCCCC[n+]3ccn(CCCCCC)c3)c2)c1.[Br-].[Br-].[Br-]; system = PAO1; MIC = 16 µM
SMILES = COc1ccc2ccc(O)c(/C=N/[C@H]3CCCC[C@H]3/N=C/c3cccc(C)c3O)c2c1; test = microbial growth, broth dilution; MIC = > 40 µM
SMILES = CC[C@H]1OC(=O)[C@H](C)[C@@H](OC(=O)Cc2ccccc2Cl)[C@H](C)[C@@H](O[C@@H]2O[C@H](C)C[C@H](N(C)C)[C@H]2O)[C@](C)(OC)C[C@@H](C)C(=O)[C@H](C)[C@@H](O)[C@]1(C)O; system = PAO397, five efflux pumps deleted; MIC = > 32 µg/mL
SMILES = COc1cccc(OC)c1C(=O)N[C@@H]1C(=O)N2[C@@H]1SC(C)(C)[C@@H]2C(=O)O; test = microbial growth, broth dilution; system = PAO1; MIC = > 128 µM
SMILES = CC[C@H]1OC(=O)[C@H](C)[C@@H](OC(=O)Cc2c(F)cccc2F)[C@H](C)[C@@H](O[C@@H]2O[C@H](C)C[C@H](N(C)C)[C@H]2O)[C@](C)(OC)C[C@@H](C)C(=O)[C@H](C)[C@@H](O)[C@]1(C)O; system = PAO397, five efflux pumps deleted; MIC = > 32 µg/mL
SMILES = CCCC(=O)Oc1c(C)c(OC)c2c(c1C)OC(=O)[C@@H](CC)[C@]2(O)/C=C/c1ccccc1 (racemic); test = microbial growth, broth dilution; system = ATCC27853; MIC = 5000 µg/mL
SMILES = COc1ccc2ccc(O)c(/C=N/[C@H]3CCCC[C@H]3/N=C/c3cccc(F)c3O)c2c1; test = microbial growth, broth dilution; conditions = clinical isolate; MIC = > 40 µM
SMILES = COc1c(NC(=O)c2ccc(NC(=O)c3ccc(NC(=O)[C@H](Cc4c[nH]nn4)NC(=O)c4ccc(NC(=O)/C(C)=C/c5ccc(O)cc5)cc4)cc3)cc2O)ccc(C(=O)O)c1O; test = broth microdilution; system = ciprofloxacin-resistant; MIC = 32 µg/mL
SMILES = O=[N+]([O-])c1c(Br)c(Cl)c2cccnc2c1O; test = microbial growth, broth dilution; system = ATCC27853; MIC = 4 µg/mL
SMILES = CC[C@H]1OC(=O)[C@H](C)[C@@H](O[C@H]2C[C@@](C)(OC)[C@@H](O)[C@H](C)O2)[C@H](C)[C@@H](O[C@@H]2O[C@H](C)C[C@H](N(C)C)[C@H]2O)[C@](C)(O)C[C@@H](C)CN(C)[C@H](C)[C@@H](O)[C@]1(C)O; test = broth microdilution; system = phenazine non-producing; MIC = 16 µg/mL
SMILES = CCCCCCCCCC(=O)Oc1c(C)c(OC)c2c(c1C)OC(=O)C(CCCCCCCC)C2(O)C=Cc1ccccc1 (stereo not drawn); test = microbial growth, broth dilution; system = ATCC27853; MIC = 5000 µg/mL
SMILES = COc1cc(C(=O)Nc2ccc(C(=O)O)c(O)c2)ccc1NC(=O)c1ccc(NC(=O)[C@H](Cc2c[nH]nn2)NC(=O)c2ccc(NC(=O)/C(C)=C/c3ccc(O)cc3)cc2)cc1; test = broth microdilution; system = ciprofloxacin-resistant; MIC = 32 µg/mL
SMILES = CCCCCCCCCC[N+](C)(C)CCCCCCOc1cc(OCCCCCC[N+](C)(C)CCCCCCCCCC)cc(OCCCCCC[N+](C)(C)CCCCCCCCCC)c1.[Br-].[Br-].[Br-]; system = PAO1; MIC = 4 µM
SMILES = CC(C)C[C@@H]1NC(=O)[C@@H](CC(C)C)NC(=O)[C@H](CCN)NC(=O)[C@@H](NC(=O)[C@H](CCN)NC(=O)[C@@H](NC(=O)CCCCN=[N+]=[N-])[C@@H](C)O)CCNC(=O)[C@H]([C@@H](C)O)NC(=O)[C@H](CCN)NC(=O)[C@H](CCN)NC1=O; test = broth microdilution; system = ATCC 10145, cation-adjusted Mueller-Hinton broth; conditions = 18 to 20 h, 37 °C, 0.002% polysorbate 80; MIC = 4 µg/mL
SMILES = CC1(C)[C@H](NC(=O)/C(=N\OCC(=O)N2CCC(C(=O)O)C2)c2nsc(N)n2)C(=O)N1OS(=O)(=O)O (stereo partly drawn); test = agar dilution; system = ATCC 27853; MIC = > 64 µg/mL
SMILES = CC[C@H]1OC(=O)[C@H](C)[C@@H](OC(=O)Cc2cccc3ccccc23)[C@H](C)[C@@H](O[C@@H]2O[C@H](C)C[C@H](N(C)C)[C@H]2O)[C@](C)(OC)C[C@@H](C)C(=O)[C@H](C)[C@@H](O)[C@]1(C)O; test = microbial growth; system = ATCC27853; MIC = > 32 µg/mL
SMILES = C/C(=C\c1ccc(O)cc1)C(=O)Nc1ccc(C(=O)N[C@@H](Cc2c[nH]nn2)C(=O)Nc2ccc(C(=O)Nc3ccc(C(=O)Nc4ccc(C(=O)O)cc4)c(O)c3)cc2)cc1; test = broth microdilution; system = ciprofloxacin-resistant; MIC = 32 µg/mL
SMILES = CC1(C)[C@H](NC(=O)/C(=N\OCCN)c2csc(N)n2)C(=O)N1OS(=O)(=O)O; test = agar dilution; system = ATCC 27853; MIC = > 64 µg/mL
SMILES = COc1cc(C(=O)O)ccc1NC(=O)c1ccc(NC(=O)c2ccc(NC(=O)[C@H](Cc3c[nH]nn3)NC(=O)c3ccc(NC(=O)/C(C)=C/c4ccc(O)cc4)cc3)cc2)c(OC)c1; test = broth microdilution; system = ciprofloxacin-resistant; MIC = 32 µg/mL
SMILES = COc1ccc2ccc(O)c(/C=N/[C@H]3CCCC[C@H]3/N=C/c3cc(F)ccc3O)c2c1; test = microbial growth, broth dilution; MIC = > 40 µM
SMILES = NC[C@H]1O[C@H](O[C@H]2[C@H](O)[C@@H](O[C@H]3O[C@H](CO)[C@@H](O)[C@H](N)[C@H]3O)[C@H](N)C[C@@H]2N)[C@H](N)C[C@@H]1O; test = microbial growth, broth dilution; system = PAO1; MIC = 0.25 µg/mL
SMILES = N=C(N)NCCC[C@@H]1NC(=O)[C@@H](CCCNC(=N)N)NC(=O)[C@H](CCCNC(=N)N)NC(=O)[C@@H](C(c2ccccc2)c2ccccc2)NC(=O)[C@@H](C(c2ccccc2)c2ccccc2)NC(=O)[C@@H](C(c2ccccc2)c2ccccc2)NC(=O)[C@@H](CCCNC(=N)N)NC1=O; system = ATCC 27853; MIC = 16 µg/mL
SMILES = CCCCCCCCCCCCCCCCCCn1cc(CN(CCC(=O)NCCN(CCC(=O)NCCN(CCC(=O)NCCN(C)C)CCC(=O)NCCN(C)C)CCC(=O)NCCN(CCC(=O)NCCN(C)C)CCC(=O)NCCN(C)C)CCC(=O)NCCN(CCC(=O)NCCN(CCC(=O)NCCN(C)C)CCC(=O)NCCN(C)C)CCC(=O)NCCN(CCC(=O)NCCN(C)C)CCC(=O)NCCN(C)C)nn1; system = PAK, LB broth; conditions = 18 h; MIC = > 96 µg/mL
SMILES = CN[C@H](CC(C)C)C(=O)N[C@H]1C(=O)N[C@@H](CC(N)=O)C(=O)N[C@H]2C(=O)N[C@H]3C(=O)N[C@H](C(=O)N[C@H](C(=O)NCc4cn(CC(=O)N[C@H](C(=O)N[C@@H](CCN)C(=O)N[C@H]5CCNC(=O)[C@H]([C@@H](C)O)NC(=O)[C@H](CCN)NC(=O)[C@H](CCN)NC(=O)[C@H](CC(C)C)NC(=O)[C@@H](CC(C)C)NC(=O)[C@H](CCN)NC5=O)[C@@H](C)O)nn4)c4cc(O)cc(O)c4-c4cc3ccc4O)[C@H](O)c3ccc(c(Cl)c3)Oc3cc2cc(c3O[C@@H]2O[C@H](CO)[C@@H](O)[C@H](O)[C@H]2O[C@H]2C[C@](C)(N)[C@H](O)[C@H](C)O2)Oc2ccc(cc2Cl)[C@H]1O; test = broth microdilution; system = ATCC 27853, cation-adjusted Mueller-Hinton broth; conditions = 18 to 20 h, 37 °C, 0.002% polysorbate 80; MIC = 16 µg/mL
SMILES = COc1ccc2ccc(O)c(/C=N/[C@H]3CCCC[C@H]3/N=C/c3c(C)cccc3O)c2c1; test = microbial growth, broth dilution; MIC = > 40 µM
SMILES = COc1ccccc1C(=O)Oc1cccccc1=O; test = broth microdilution; system = ATCC 27853, CAMHB; conditions = 16 to 24 h, ≥80% growth inhibition; MIC = > 71.4 µM
SMILES = O=C(O)c1cn(C2CC2)c2cc(N3CCNCC3)c(F)cc2c1=O; test = microbial growth, broth dilution; MIC = < 0.008 µg/mL
SMILES = CC[C@H]1OC(=O)[C@H](C)[C@@H](OC(=O)Cc2ccc(Cl)cc2)[C@H](C)[C@@H](O[C@@H]2O[C@H](C)C[C@H](N(C)C)[C@H]2O)[C@](C)(OC)C[C@@H](C)C(=O)[C@H](C)[C@@H](O)[C@]1(C)O; system = PAO397, five efflux pumps deleted; MIC = > 32 µg/mL
SMILES = C=CCO/N=C(\C(=O)N[C@@H]1C(=O)N(OS(=O)(=O)O)C1(C)C)c1csc(N)n1; test = agar dilution; system = ATCC 27853; MIC = 64 µg/mL
SMILES = CCCCCCCCn1cc[n+](CCCCCCCCCCOc2cc(OCCCCCCCCCC[n+]3ccn(CCCCCCCC)c3)cc(OCCCCCCCCCC[n+]3ccn(CCCCCCCC)c3)c2)c1.[Br-].[Br-].[Br-]; system = PAO1; MIC = 32 µM

A few entries again:
SMILES = COc1ccc2ccc(O)c(/C=N/[C@H]3CCCC[C@H]3/N=C/c3cccc(C)c3O)c2c1; test = microbial growth, broth dilution; MIC = > 40 µM
SMILES = CC[C@H]1OC(=O)[C@H](C)[C@@H](OC(=O)Cc2ccccc2Cl)[C@H](C)[C@@H](O[C@@H]2O[C@H](C)C[C@H](N(C)C)[C@H]2O)[C@](C)(OC)C[C@@H](C)C(=O)[C@H](C)[C@@H](O)[C@]1(C)O; system = PAO397, five efflux pumps deleted; MIC = > 32 µg/mL
